Measurements gathered from unrelated publications.
Each numbered part is a random draw from the data of one study; scales do not carry over between parts. Positions count from the first letter of the parent shown.

Set 1 — target: CCNB2, cyclin fold, Cln2 fusion (human); method: yeast growth competition, sequencing; medium: yeast; notes: weak parent motif; baseline: not given; direction: higher = stronger binding
Parent: PKN2 docking peptide (human); VSAVRKLDFSDTM; partner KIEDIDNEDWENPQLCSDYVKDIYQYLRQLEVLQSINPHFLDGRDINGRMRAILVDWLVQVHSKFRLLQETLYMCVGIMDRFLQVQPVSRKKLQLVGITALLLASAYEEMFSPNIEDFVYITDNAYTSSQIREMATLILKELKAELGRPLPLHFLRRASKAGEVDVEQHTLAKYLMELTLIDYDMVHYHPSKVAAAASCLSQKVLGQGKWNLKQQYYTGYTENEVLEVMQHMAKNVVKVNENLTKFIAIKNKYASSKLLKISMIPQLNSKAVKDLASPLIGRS
For `VSAVRKLDFADTM [S10A]`, “normalised enrichment score” read 0.663.
For `VSAVRKLDFSGTM [D11G]`, “normalised enrichment score” read 0.379.
Under “normalised enrichment score”, `VWAVRKLDFSDTM [S2W]` is recorded as 0.573.
Under “normalised enrichment score”, `VSAVRKLNFSDTM [D8N]` is recorded as 0.298.
For `VSAFRKLDFSDTM [V4F]`, “normalised enrichment score” read -0.041.
`VSAVRKLPFSDTM [D8P]` — result for “normalised enrichment score”: 0.132.
Under “normalised enrichment score”, `VSAVRKEDFSDTM [L7E]` is recorded as -0.21.
For `VGAVRKLDFSDTM [S2G]`, “normalised enrichment score” read 0.508.
Under “normalised enrichment score”, `VSRVRKLDFSDTM [A3R]` is recorded as 0.51.
Under “normalised enrichment score”, `VSASRKLDFSDTM [V4S]` is recorded as 0.376.
`VSATRKLDFSDTM [V4T]`: “normalised enrichment score” 0.397.
`VSAVRKHDFSDTM [L7H]`: “normalised enrichment score” 0.3.
`VSAVKKLDFSDTM [R5K]` — result for “normalised enrichment score”: 0.215.

Set 2 — method: universal PBM; molecule type: double-stranded DNA, one strand shown; medium: in vitro; concentration: 600 nM; direction: higher = stronger binding
Target: Sal-like protein 4, full length isoform A (SALL4, Homo sapiens, UniProt Q9UJQ4, residues 1-1053)
Sequence of UniProt Q9UJQ4 (whole entry, looked up): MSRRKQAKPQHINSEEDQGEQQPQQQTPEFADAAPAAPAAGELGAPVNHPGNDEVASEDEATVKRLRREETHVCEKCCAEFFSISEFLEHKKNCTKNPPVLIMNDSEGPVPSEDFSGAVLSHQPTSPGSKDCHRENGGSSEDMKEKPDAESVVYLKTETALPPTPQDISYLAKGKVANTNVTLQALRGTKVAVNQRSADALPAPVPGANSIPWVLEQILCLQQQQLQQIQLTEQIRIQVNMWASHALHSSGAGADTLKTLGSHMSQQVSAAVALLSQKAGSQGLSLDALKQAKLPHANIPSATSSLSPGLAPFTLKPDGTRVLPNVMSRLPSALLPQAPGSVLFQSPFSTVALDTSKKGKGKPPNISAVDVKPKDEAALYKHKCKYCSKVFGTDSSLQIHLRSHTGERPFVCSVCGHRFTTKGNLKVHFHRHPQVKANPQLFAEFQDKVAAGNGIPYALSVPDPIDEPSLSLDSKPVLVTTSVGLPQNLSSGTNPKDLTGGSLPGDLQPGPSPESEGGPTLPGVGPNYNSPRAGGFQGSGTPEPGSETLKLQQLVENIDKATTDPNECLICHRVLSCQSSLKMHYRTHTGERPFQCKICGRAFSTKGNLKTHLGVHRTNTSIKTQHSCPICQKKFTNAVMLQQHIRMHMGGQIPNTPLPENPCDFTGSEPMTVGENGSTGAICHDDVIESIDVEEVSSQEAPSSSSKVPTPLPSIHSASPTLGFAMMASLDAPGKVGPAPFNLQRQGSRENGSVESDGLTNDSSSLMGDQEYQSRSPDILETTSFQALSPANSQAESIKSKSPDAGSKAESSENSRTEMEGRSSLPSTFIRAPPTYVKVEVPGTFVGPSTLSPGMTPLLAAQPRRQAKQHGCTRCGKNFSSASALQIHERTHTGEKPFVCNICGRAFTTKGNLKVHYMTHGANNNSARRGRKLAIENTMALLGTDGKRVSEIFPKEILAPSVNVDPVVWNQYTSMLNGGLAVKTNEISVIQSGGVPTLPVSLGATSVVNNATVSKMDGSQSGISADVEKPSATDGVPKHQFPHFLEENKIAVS
Notes: 8-mer, flanks averaged, mean of replicates
`CCGATGCC` gave an E-score of -0.201.
`AGCAGTAT` gave an E-score of 0.131.
The E-score of `CGGGCGCA` is reported as -0.316.
The E-score of `AAAGGCCA` is reported as -0.119.
For `ATGATGAG`, the E-score was 0.148.
`CACCGACC` has an E-score of -0.281.
`CCTCCCTA` has an E-score of -0.133.
`CGGACTAA` has an E-score of -0.109.
`AGACTTTA` has an E-score of 0.136.
With `CGGTAGCC` the E-score was -0.265.

Set 3 — method: RNA Bind-n-Seq; molecule type: RNA; medium: in vitro; concentration: 1 µM; notes: whole 134-nt RNA, ends assumed; together with: 150 mM KCl; baseline: input library; direction: higher = stronger binding
Target: Ras GTPase-activating protein-binding protein 1, C-terminal RGG region (G3BP1, Homo sapiens, UniProt Q13283)
Sequence of UniProt Q13283 (whole entry, looked up): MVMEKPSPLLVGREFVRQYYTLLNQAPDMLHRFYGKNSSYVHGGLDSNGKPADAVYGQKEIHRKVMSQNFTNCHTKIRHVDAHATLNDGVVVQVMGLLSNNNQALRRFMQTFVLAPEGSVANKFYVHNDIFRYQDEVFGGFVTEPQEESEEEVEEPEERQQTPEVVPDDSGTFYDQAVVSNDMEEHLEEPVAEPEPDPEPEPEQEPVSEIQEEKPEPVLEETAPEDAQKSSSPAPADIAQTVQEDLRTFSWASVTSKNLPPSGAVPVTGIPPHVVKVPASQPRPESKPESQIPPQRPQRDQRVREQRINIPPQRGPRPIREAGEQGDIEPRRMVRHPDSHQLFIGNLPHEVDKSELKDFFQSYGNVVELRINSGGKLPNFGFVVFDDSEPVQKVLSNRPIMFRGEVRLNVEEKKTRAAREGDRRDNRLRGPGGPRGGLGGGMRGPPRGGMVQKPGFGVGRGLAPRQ
Constant ends, left off below: GGGAGUUCUACAGUCCGACGAUC … UGGAAUUCUCGGGUGUCAAGG
`UCAAGUCCUGUGCUACACAUCGUAUGUACCGAAUCGGAAAAAGGAAAAAGGUGGAAAGUAUUAUGUUACGCCGUUCGGAUCUGCACUUCC` gave a log2 enrichment of -1.4.
`AAGUCCUGUGCUACACAUCGUAUGUACCGAAUCGGGGAAAGGGGUUUGGGGUGGGGAAAGUAUUAUGUUACGCCGUUCGGAUCUGCACUU` has a log2 enrichment of 3.31.
`ACCAUGCAGGUGGGCAUCUUUGGGAAGUGGGGCAAGGGGGGGAUAGGGAGGGGGGUAACACUUUGGGAACAGGUUGUCCCAGGUCGUUUC` has a log2 enrichment of 2.5.
`UCAAGUCCUGUGCUACACAUCGUAUGUACCGAAUCGGAAAGGAGGUUUUUUUGGAAAGUAUUAUGUUACGCCGUUCGGAUCUGCACUUCC` gave a log2 enrichment of -1.23.
With `CAAGUCCUGUGCUACACAUCGUAUGUACCGAAUCGGGGUUGGGGUUGGGUUGGGGAAAGUAUUAUGUUACGCCGUUCGGAUCUGCACUUC` the log2 enrichment was 2.72.
The log2 enrichment of `UCCUGUGCUACACAUCGUAUGUACCGAAUCGGCCCCCCGGGCCCCCCGGGGCCCCCCGGAAAGUAUUAUGUUACGCCGUUCGGAUCUGCA` is reported as -1.27.
`UCCUGUGCUACACAUCGUAUGUACCGAAUCGGGCCCCCCGGCCCCCCGGGGCCCCCCGGAAAGUAUUAUGUUACGCCGUUCGGAUCUGCA` gave a log2 enrichment of -0.532.
For `CAAGUCCUGUGCUACACAUCGUAUGUACCGAAUCGGGGUUUGGUUUGGGGUUUGGAAAGUAUUAUGUUACGCCGUUCGGAUCUGCACUUC`, the log2 enrichment was -1.03.
For `CACAGACAACACGCACCCACACAGAAAAAGAGGGAAGGGGUUGGGAUGGGGACAGGGUGCACAGCAGGGCGGGGUAGGACCCCAGCCCCU`, the log2 enrichment was -0.44.
`GUCCUGUGCUACACAUCGUAUGUACCGAAUCGGUUUUUGGUUUUUUUGGAAAAAAAGGAAAGUAUUAUGUUACGCCGUUCGGAUCUGCAC` has a log2 enrichment of -1.76.
For `UGGCCCUGGUGGCAUGCGGGGAGGAAGAGGGGGCCUCAUGGAUCGUGGUGGUCCCGGUGGAAUGUUCAGAGGUGGCCGUGGUGGAGACAG`, the log2 enrichment was 2.01.

Mixed results
For `PhoQ, residues 284 288 289 292 302 303 TAVSDG`, the fold induction was 21.9 (PhoP, residues 12 14 15 18 19 IQFRS (Escherichia coli, UniProt P23836); Sort-seq, measured: YFP reporter; E. coli; PhoQ-PhoP variant library, together with: 10 µM Mg2+; baseline: high Mg2+ state, higher = stronger signaling).

Some of these lines once more (set 3):
`AAGUCCUGUGCUACACAUCGUAUGUACCGAAUCGGGGAAAGGGGUUUGGGGUGGGGAAAGUAUUAUGUUACGCCGUUCGGAUCUGCACUU` has a log2 enrichment of 3.31.
`ACCAUGCAGGUGGGCAUCUUUGGGAAGUGGGGCAAGGGGGGGAUAGGGAGGGGGGUAACACUUUGGGAACAGGUUGUCCCAGGUCGUUUC` has a log2 enrichment of 2.5.
`UCAAGUCCUGUGCUACACAUCGUAUGUACCGAAUCGGAAAGGAGGUUUUUUUGGAAAGUAUUAUGUUACGCCGUUCGGAUCUGCACUUCC` gave a log2 enrichment of -1.23.
With `CAAGUCCUGUGCUACACAUCGUAUGUACCGAAUCGGGGUUGGGGUUGGGUUGGGGAAAGUAUUAUGUUACGCCGUUCGGAUCUGCACUUC` the log2 enrichment was 2.72.
The log2 enrichment of `UCCUGUGCUACACAUCGUAUGUACCGAAUCGGCCCCCCGGGCCCCCCGGGGCCCCCCGGAAAGUAUUAUGUUACGCCGUUCGGAUCUGCA` is reported as -1.27.
`UCCUGUGCUACACAUCGUAUGUACCGAAUCGGGCCCCCCGGCCCCCCGGGGCCCCCCGGAAAGUAUUAUGUUACGCCGUUCGGAUCUGCA` gave a log2 enrichment of -0.532.
